Measured values from different studies.
Numbered parts are unrelated; each lists some results of a single study. Substitutions count along the parent as printed.

Study 1
Target: ABI1, truncated, D143A, DHFR fusion (Arabidopsis thaliana)
Method: DHFR PCA, deep sequencing
Sample: yeast
Notes: methotrexate growth selection, single substitutions
Together with: (+)-ABA 710 µM
Relative to: wild-type fitted maximum
Reading: higher = stronger binding
Starting sequence: PYL1, truncated, DHFR fusion (Arabidopsis thaliana); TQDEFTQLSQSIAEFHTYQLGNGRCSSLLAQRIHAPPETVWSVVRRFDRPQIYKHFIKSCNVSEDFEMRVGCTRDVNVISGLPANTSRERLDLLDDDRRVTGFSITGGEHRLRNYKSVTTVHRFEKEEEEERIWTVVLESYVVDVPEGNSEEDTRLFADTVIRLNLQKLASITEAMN
| Substitution | relative binding score [%] |
| --- | --- |
| Y141E | 8.52 |
| L112S | -0.888 |
| E130A | 112 |
| E38A | 97.5 |
| H55A | 105 |
| C72M | 99.2 |
| E4F | 91.6 |
| I33W | 2.23 |
| S9A | 106 |
| L29S | 86.8 |
| D92N | 91.1 |
| D153R | -0.136 |
| T86V | 100 |
| T39R | 104 |
| I52H | 101 |
| N85Q | 104 |
| R132G | 117 |
| G148P | 86.1 |
| A13H | 97.6 |
| V121N | 16.7 |

Study 2
Target: Interferon regulatory factor 7, full length, phosphomimetic (IRF7, Homo sapiens, UniProt Q92985, residues 1-503, S101K/S471D/S472D/S475D/S476D/S477D/S483D/S484D/S487D)
UniProt Q92985, sequence (whole entry, unmodified, looked up): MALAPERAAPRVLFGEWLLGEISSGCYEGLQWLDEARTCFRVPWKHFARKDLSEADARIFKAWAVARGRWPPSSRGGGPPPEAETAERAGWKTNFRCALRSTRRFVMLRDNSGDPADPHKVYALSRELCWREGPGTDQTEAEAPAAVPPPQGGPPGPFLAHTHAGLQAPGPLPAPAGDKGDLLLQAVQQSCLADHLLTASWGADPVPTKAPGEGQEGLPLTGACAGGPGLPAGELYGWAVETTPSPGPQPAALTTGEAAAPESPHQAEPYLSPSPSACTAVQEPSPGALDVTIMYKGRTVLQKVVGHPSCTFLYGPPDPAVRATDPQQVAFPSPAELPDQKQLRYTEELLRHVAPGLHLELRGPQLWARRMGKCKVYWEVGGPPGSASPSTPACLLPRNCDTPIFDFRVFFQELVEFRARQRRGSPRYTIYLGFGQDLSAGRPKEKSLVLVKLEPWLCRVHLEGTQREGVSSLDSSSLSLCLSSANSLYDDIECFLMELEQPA
Method: protein-binding microarray
Form: double-stranded DNA, one strand shown
Sample: in vitro
Concentration: 250 nM
Notes: 60-bp whole probe
Together with: salmon DNA 0.4 mg/ml
Relative to: random background probes
Reading: higher = stronger binding
Constant ends, left off below: GCCTAGCAC … GTCTTGATTCGCTTGACGCTGCTG
| Oligonucleotide | log fluorescence |
| --- | --- |
| AGCCTTATCCCTAATCTCAGCGTGCTA | 0.0256 z-score |
| TTAGAACTGAGACTGGATTTGTGCTAG | -0.335 z-score |
| TTAGGTATCGGTATCGGATAGTGCTAG | 1.89 z-score |
| GACGGTTTCGGCATCGGGACGTGCTAG | 3.06 z-score |
| TTAGGTTTTGGACTGGGTTAGTGCTAG | 0.239 z-score |
| TTAGGATTGGGACTGGGTTAGTGCTAG | 0.0168 z-score |
| TTAGGTATCGATTTCGGTTAGTGCTAG | 5.24 z-score |
| TTAGGACTGCTTTTCCTTGAGTGCTAG | 0.706 z-score |
| TTAGAACTGAGGATCGATTAGTGCTAG | 0.0845 z-score |
| TCATGCCTATTTTTCCCACTGTGCTAG | 0.914 z-score |
| GATGTTTTAGGTCCCTTTTCGTGCTAG | 1.76 z-score |
| GATGATATCGGGTATCGAGACGTGCTA | -0.256 z-score |
| TCACTTCCCAATTCTCTTACTGTGCTA | 2.08 z-score |
| TTAGGACTGGACTATAGGTTAGTGCTA | -0.349 z-score |
| TCAGTAAGCAAAAATGAACTGTGCTAG | -0.394 z-score |
| GACGGTATCGGTCTCGCGACGTGCTAG | 0.33 z-score |
| GACGGTATCGGGTTTTGGGACGTGCTA | 0.888 z-score |
| TCAGAACTGGGGTTTCGATTAGTGCTA | 6 z-score |
| ATAGATCTCAGTCTCGATTAGTGCTAG | 1.49 z-score |

Study 3
Organism: Saccharomyces cerevisiae
Effect on: binding
Method: yeast competitive growth sequencing
Form: peptide
Strain: cyclin D2-Cln2 fusion strain
Notes: peptide tiling library
Reading: direction not given
| Sequence | enrichment score |
| --- | --- |
| KRCATPVIIDEILPSK | 0.896 |
| EPRNLLSLFEDTLDPT | -0.417 |
| PHKTFRKLRLFDTPHT | -2.81 |
| SPPRGRRLFPPGPAGF | -0.652 |
| YLYLLLTQSLWCRV | -1.55 |
| GTPKRCLDLSNLSSGE | -1.23 |
| VKRLNFRSEEME | -1.59 |
| RQVRRDLFAF | -2.13 |
| GPVKLEFDVSDGAT | -0.755 |

Study 4
Target: Transcriptional repressor CTCF (CTCF, Homo sapiens, UniProt P49711, residues 1-727, full length assumed)
UniProt P49711, sequence (whole entry, looked up): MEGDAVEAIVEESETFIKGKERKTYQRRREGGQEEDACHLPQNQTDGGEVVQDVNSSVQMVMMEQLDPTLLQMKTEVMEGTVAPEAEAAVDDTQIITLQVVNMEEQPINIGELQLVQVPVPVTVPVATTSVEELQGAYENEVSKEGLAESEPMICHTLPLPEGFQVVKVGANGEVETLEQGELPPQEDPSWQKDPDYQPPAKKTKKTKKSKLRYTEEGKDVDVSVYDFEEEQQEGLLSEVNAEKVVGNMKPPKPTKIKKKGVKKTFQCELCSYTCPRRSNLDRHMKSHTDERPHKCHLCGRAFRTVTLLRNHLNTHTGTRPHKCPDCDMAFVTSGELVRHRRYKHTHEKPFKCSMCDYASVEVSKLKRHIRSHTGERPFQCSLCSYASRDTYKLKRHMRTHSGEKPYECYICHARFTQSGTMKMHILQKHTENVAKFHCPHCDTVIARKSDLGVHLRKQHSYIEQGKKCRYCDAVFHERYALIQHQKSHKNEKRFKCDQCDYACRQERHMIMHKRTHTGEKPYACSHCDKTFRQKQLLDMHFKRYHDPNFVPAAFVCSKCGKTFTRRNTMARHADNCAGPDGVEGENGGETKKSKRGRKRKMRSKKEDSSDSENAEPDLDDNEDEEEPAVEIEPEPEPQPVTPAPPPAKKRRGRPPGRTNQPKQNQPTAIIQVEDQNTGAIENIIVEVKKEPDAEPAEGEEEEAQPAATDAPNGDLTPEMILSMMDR
Method: protein-binding microarray
Form: double-stranded DNA, one strand shown
Sample: in vitro
Concentration: not given
Notes: k-mer, scored over probes, only values ≥0.25
Reading: higher = stronger binding
| Oligonucleotide | E-score |
| --- | --- |
| ATTAGTCC | 0.26 |
| GGTGGCGA | 0.336 |
| AGAAACAT | 0.283 |
| ATATAACA | 0.369 |
| TATACTGA | 0.261 |
| ACAATTAC | 0.268 |
| AGGGCGCA | 0.338 |
| CACATATC | 0.261 |
| ACAATTAA | 0.269 |
| AATACAAT | 0.272 |
| ATACAGTG | 0.337 |
| AACTAGCG | 0.255 |
| CACTGCGC | 0.319 |
| CGTTTATA | 0.267 |
| ACAATATA | 0.339 |
| AATGTTTA | 0.281 |

Study 5
Target: Histone acetyltransferase KAT6A, both winged helices, GST fusion (KAT6A, Homo sapiens, UniProt Q92794, residues 1-181)
Method: protein binding microarray
Form: double-stranded DNA, one strand shown
Sample: in vitro
Concentration: not given
Notes: 8-mer, flanks averaged, mean of 2 arrays, mostly near background
Relative to: not given
Reading: higher = stronger binding
Residues (chain): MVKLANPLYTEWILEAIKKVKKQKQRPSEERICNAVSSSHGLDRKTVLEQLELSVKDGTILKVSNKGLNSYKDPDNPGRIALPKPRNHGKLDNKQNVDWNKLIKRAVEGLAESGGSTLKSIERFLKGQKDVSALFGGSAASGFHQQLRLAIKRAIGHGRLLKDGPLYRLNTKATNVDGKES
| Oligonucleotide | E-score |
| --- | --- |
| ACAAACGG | 0.208 |
| CTGTTAAA | -0.0484 |
| CATGCCGG | 0.242 |
| GAAGTTCA | -0.139 |
| CGCTCGGA | 0.295 |
| GATGTCCC | 0.132 |
| TAGTCTGA | -0.106 |
| ATGTACAG | -0.0326 |
| AATCCGCG | 0.275 |
| CCCCAAAA | -0.0674 |
| GAGAGGAA | -0.281 |
| GTGAGGGA | -0.123 |
| ATACACTC | -0.0309 |
| CCCCAGTC | -0.238 |
| TGAGAGCA | -0.217 |
| AAAGTAGG | -0.0754 |
| CGCCCGTA | 0.275 |
| ATATGTCA | 0.0131 |
| GAGTTATC | -0.0414 |
| CCATCAAC | -0.0926 |
| CGTGGCCC | 0.043 |
| ATAAAATC | 0.0211 |

Other studies, line by line
| Substance | target | assay | test system | conditions | scale | endpoint | value |
| --- | --- | --- | --- | --- | --- | --- | --- |
| PhoQ, residues 284 288 289 292 302 303 GANMMA | PhoP, residues 12 14 15 18 19 MHTVL (Escherichia coli, UniProt P23836) | Sort-seq, measured: YFP reporter | E. coli | PhoQ-PhoP variant library, together with: 10 µM Mg2+ | relative to: high Mg2+ state, higher = stronger signaling | fold induction | 14.2 |

For quick reference, copied from above (study 1):
| Substitution | relative binding score [%] |
| --- | --- |
| Y141E | 8.52 |
| L112S | -0.888 |
| E130A | 112 |
| E38A | 97.5 |
| H55A | 105 |
| C72M | 99.2 |
| E4F | 91.6 |
| I33W | 2.23 |
| S9A | 106 |
| L29S | 86.8 |
